Measured values pooled from the literature.
A part holds a random share of what one study measured.
Chain of UniProt P31645 (whole entry, looked up): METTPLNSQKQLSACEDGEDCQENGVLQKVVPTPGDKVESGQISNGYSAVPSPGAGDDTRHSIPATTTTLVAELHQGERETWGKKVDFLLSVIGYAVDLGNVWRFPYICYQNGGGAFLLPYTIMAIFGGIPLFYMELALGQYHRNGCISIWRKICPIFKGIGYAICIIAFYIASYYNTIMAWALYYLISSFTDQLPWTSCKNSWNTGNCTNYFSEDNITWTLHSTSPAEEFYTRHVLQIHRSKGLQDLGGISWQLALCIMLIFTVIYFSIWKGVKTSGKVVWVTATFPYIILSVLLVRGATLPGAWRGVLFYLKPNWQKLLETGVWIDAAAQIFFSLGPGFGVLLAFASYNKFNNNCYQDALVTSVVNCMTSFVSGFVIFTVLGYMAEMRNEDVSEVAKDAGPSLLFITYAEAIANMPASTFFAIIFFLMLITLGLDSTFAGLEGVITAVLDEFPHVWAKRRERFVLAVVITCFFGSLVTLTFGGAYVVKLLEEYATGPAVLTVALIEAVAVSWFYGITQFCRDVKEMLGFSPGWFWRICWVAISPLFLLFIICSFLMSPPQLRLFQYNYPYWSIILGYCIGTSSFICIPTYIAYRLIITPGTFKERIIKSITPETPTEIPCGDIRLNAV

Block 1
Target: Beta-1 adrenergic receptor (ADRB1, Homo sapiens, UniProt P08588)
Chain of UniProt P08588 (whole entry, looked up): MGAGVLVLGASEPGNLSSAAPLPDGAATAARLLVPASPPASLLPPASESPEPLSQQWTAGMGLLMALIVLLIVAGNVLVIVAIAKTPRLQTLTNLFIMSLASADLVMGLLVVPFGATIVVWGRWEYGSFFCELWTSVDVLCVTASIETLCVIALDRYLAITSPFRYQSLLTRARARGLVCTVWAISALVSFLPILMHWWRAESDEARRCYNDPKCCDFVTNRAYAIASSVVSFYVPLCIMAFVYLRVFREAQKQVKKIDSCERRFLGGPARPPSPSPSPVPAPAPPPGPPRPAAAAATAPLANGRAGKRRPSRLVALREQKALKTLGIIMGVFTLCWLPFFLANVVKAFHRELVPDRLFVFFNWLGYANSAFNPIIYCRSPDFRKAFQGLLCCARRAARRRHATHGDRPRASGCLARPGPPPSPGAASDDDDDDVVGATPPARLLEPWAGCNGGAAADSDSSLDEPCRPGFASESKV
Mode: agonist
`CCN(c1cc(-c2ccc(N3CCN(C)CC3)nc2)cc(C(=O)NCc2c3c(c(C)[nH]c2=O)CCCC3)c1C)C1CCOCC1` has an EC50 of ≥ 100 µM.
The EC50 of `Oc1ccc(-c2cc(-c3cccc(N4CCOCC4)c3)cn3cncc23)cn1` is reported as ≥ 100 µM.
For `NCCCN(CCCCNCCCNC(=O)CCc1ccc(O)c(O)c1)C(=O)CCc1ccc(O)c(O)c1`, the EC50 was 7.08 µM.
`CN(C)c1cccc(C(=O)N2CCC3(CC2)NC(=O)N(c2cccc(Cl)c2)N3)c1` gave an EC50 of ≥ 100 µM.
`CN(C)c1ccc2c(c1)OC(N)=C(C#N)C2c1cccc(C(F)(F)F)c1` (stereo not shown) gave an EC50 of ≥ 100 µM.
The EC50 of `CC(C)NC(=O)c1cc(-c2cccs2)nc2ccccc12` is reported as ≥ 100 µM.
For `COc1cccc(NC(=O)c2sc3nc(C)c(C(=O)Nc4ccc(C)cc4C)c(-c4ccc(C)o4)c3c2N)c1`, the EC50 was ≥ 100 µM.
For `N[C@H](Cc1cscn1)C(=O)Nc1cccc(-c2nn3c(=O)cc(N4CCNCC4)nc3s2)c1`, the EC50 was ≥ 100 µM.

Block 2
Target: Calcium/calmodulin-dependent protein kinase type II subunit alpha (CAMK2A, Homo sapiens, UniProt Q9UQM7)
Chain of UniProt Q9UQM7 (whole entry, looked up): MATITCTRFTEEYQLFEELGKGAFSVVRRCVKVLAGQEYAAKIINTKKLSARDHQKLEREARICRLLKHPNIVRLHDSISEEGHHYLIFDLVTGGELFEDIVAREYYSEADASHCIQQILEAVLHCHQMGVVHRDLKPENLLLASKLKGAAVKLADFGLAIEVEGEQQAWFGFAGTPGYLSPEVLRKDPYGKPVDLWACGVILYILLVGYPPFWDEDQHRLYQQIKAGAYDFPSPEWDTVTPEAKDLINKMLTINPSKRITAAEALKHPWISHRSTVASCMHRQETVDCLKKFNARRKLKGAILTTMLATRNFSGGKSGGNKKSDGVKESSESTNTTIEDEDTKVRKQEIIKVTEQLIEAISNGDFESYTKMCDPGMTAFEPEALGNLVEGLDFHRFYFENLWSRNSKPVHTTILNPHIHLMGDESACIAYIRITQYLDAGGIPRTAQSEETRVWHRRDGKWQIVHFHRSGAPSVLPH
Observed: enzyme activity
Mode: inhibitor
Tested at: 10 µM
`CC1(C)CCC2=C(O1)c1ccccc1C(=O)C2=O` has an inhibition of -2%.
`S=P(N1CC1)(N1CC1)N1CC1` gave an inhibition of 3%.
`C[C@]12CCC(=O)C=C1CC[C@@H]1[C@@H]2[C@@H](O)C[C@@]2(C)[C@H]1CC[C@]2(O)C(=O)CO` gave an inhibition of 38%.
`O=c1oc2cc(O)ccc2c2ccccc12` has an inhibition of -49%.
`NC(=O)N[C@@H](CCC(=O)O)C(=O)O` has an inhibition of -1%.
`C[C@@H]1O[C@@H](O[C@H]2C(=O)c3c(O)cc(O)cc3O[C@@H]2c2ccc(O)c(O)c2)[C@H](O)[C@H](O)[C@H]1O` gave an inhibition of -11%.
For `CCCCCCCCCCCCCCCCCCCCCCCCCCCCC`, the inhibition was 14%.
`CC(C)=CC[C@@H](O)C1=CC(=O)c2c(O)ccc(O)c2C1=O` gave an inhibition of -13%.

Block 3
Organism: Sarcocystis neurona
Observed: parasite activity
Tested at: 10 µM
Time: 96 h
Under activity class, `COC(=O)C[C@](O)(CCCC(C)(C)O)C(=O)O[C@@H]1C(OC)=C[C@]23CCCN2CCc2cc4c(cc2[C@H]13)OCO4` is recorded as “inactive”.
Under activity class, `CC(=O)[C@]1(O)Cc2c(O)c3c(c(O)c2[C@@H](O[C@H]2C[C@H](N)[C@H](O)[C@H](C)O2)C1)C(=O)c1ccccc1C3=O` is recorded as “inactive”.
`c1ccc(-c2ccc(C(c3ccccc3)n3ccnc3)cc2)cc1` (stereo not shown) — result for activity class: “inactive”.
`CCCN1C[C@H](CSC)C[C@@H]2c3cccc4[nH]cc(c34)C[C@H]21`: activity class “inactive”.
For `CC(C)(C)NCC(O)c1cc(O)cc(O)c1` (stereo not shown), activity class read “inactive”.
For `CCCNCC(O)COc1ccccc1C(=O)CCc1ccccc1` (stereo not shown), activity class read “inactive”.
For `O=C1CCc2ccc(OCCCCN3CCN(c4cccc(Cl)c4Cl)CC3)cc2N1`, activity class read “inactive”.
For `CC(=O)CCCCn1c(=O)c2c(ncn2C)n(C)c1=O`, activity class read “inactive”.

Mixed results
The inhibition of `CCC(=O)N[C@@H]1CC[C@H](C(=O)N(C)c2ccc(-c3nc4ccccc4o3)cc2)C1` is reported as 20.2% (Sodium-dependent serotonin transporter (SLC6A4, Homo sapiens, UniProt P31645); binding, radioligand binding; 10 µM).
